Measurements collected from several papers.
Compare with care: the assays were run in different laboratories. ± gives the spread as reported.

Structure (SMILES)	assay	system	conditions	how to read	measurement	value
Cn1c(-c2ccc(C(N)=O)cc2F)nnc1C(C)(C)Oc1c(F)cc(Cl)cc1F	–	human	oral, 3 mg, single ascending dose	–	nervous system disorder TEAE	0%
COc1ccc(C[C@@H]2NC(=O)[C@@H](CC(C)C)NC(=O)CNC(=O)[C@H](CC(C)C)NC(=O)[C@@H](CC(C)C)NC(=O)[C@H]3CCCN3C2=O)cc1	LC/MS	horizontal lipid bilayer	10 µM, 1 h, room temperature, 1% DMSO in PBS	–	Papp	140 ± 50 ×10⁻⁶ cm/s
CC(C)C[C@H](NC(=O)[C@H](CCCCN)NC(=O)OCC1c2ccccc2-c2ccccc21)C(=O)N[C@H](C(=O)N[C@@H](Cc1ccccc1)C(=O)N[C@@H](Cc1ccccc1)C(=O)N[C@@H](CCCCN)C(=O)NCC(=O)N[C@@H](Cc1ccccc1)C(=O)N[C@@H](C)C(=O)N[C@@H](Cc1c[nH]c2ccccc12)C(=O)N[C@@H](CC(N)=O)C(=O)N[C@H](C(=O)N[C@H]1CSSC[C@@H](C(=O)N[C@@H](Cc2c[nH]cn2)C(=O)N[C@@H](CCCNC(=N)N)C(=O)N[C@@H](CCCNC(=N)N)C(=O)N[C@@H](C)C(=O)N[C@@H](CC(N)=O)C(N)=O)NC(=O)[C@H](C(C)C)NC(=O)[C@H](CCCNC(=N)N)NC(=O)[C@H](C(C)C)NC(=O)CNC(=O)[C@H](CC(N)=O)NC(=O)[C@H](CCCNC(=N)N)NC(=O)[C@H](Cc2ccc(O)cc2)NC(=O)[C@H](C(C)C)NC1=O)C(C)C)C(C)C	–	ICR mice, blood	intraperitoneal, 5 mg/kg, day 5	–	lymphocytes	74.7 ± 1.19%
COc1ncnn2ccc(-c3cnc4nc(C)n(Cc5nnc([C@@H](C)F)o5)c4c3)c12	–	human patients	oral, dose not given, grade 1 adverse drug reaction	–	incidence of Stomatitis	21.4%
CCc1ccc(CC/C=C/c2ccc3c(c2)C(=O)CC3)cc1	–	Sprague-Dawley rat, male	oral, 30 mg/kg/day, 14 days	–	LDH serum activity	386 U/L
COc1cc2c(Oc3ccc4[nH]c(C)cc4c3F)ccnc2cc1OCC1(N)CC1	–	paediatric recurrent refractory sarcoma	concentration not given, whole group	–	grade 3 Proteinuria	0%
C[C@]1(O)C[C@@](N)(c2ccc(-c3nc4n(c3-c3ccccc3)COc3ccncc3-4)cc2)C1	–	human, advanced or metastatic solid tumours	dose not given, all patients	–	patients with grade ≥3 AST increased	5.9%
CN1CC[C@@H](c2c(O)cc(O)c3c(=O)cc(-c4ccc(C(F)(F)F)cc4Cl)oc23)[C@@H]1CO	item: Constipation	AML	oral, 100 mg, intermittent dosing	–	patients with adverse event	0%
Cc1cccc(Cn2nc(C3CC3)c3c(NC(=O)c4cnc5cc(OCCN6CCN(C)CC6)ccn45)cccc32)n1	CTCAE v4.03, item: ALT increased	pancreatic ductal adenocarcinoma patients	oral, dose not given, added: pembrolizumab IV every 3 weeks	–	all-cause adverse events	18.5%
O[C@H]1CCCN[C@@H]1CCCn1cnc2c(Cl)c(Cl)ccc21	–	healthy CYP2D6 EM and UM, plasma	oral, 150 mg single dose	–	AUC(0-12)	606 ng·h/mL
COc1nnc2ccc(N3CCC(c4ccc(OCCN5CCN(C)C(=O)[C@H]5C)cc4)CC3)nn12	–	relapsed/refractory solid tumour or lymphoma patients	oral, dose not given	–	serious TEAE	20.6%
Cc1ncnc2c1ccn2[C@@H]1C[C@H](Oc2cc(C(F)F)c(F)c3c2CNCC3)[C@@H](O)[C@H]1O	–	patients	dose not given, grade ≥3	reference: patients	Dyspnea incidence	0%
N#Cc1cc(NC(=O)[C@H]2c3ccccc3C(=O)N(CC(F)(F)F)[C@@H]2c2cccnc2)ccc1F	–	Sprague Dawley rat, both sexes	oral, 7 days	–	well tolerated repeated dose	≤ 350 mg/kg
COc1ccc2nc3cc(Cl)ccc3c(Nc3cc(CN4CCCC4)c(O)c(CN4CCCC4)c3)c2n1	–	mouse, blood	intraperitoneal, 57 mg/kg	–	ALT activity	0.33 U/L
CO[C@H]1C[C@@H]2CC[C@@H](C)[C@@](O)(O2)C(=O)C(=O)N2CCCC[C@H]2C(=O)O[C@H]([C@H](C)C[C@@H]2CC[C@@H](OC(=O)NCCOCCOCCOCCOCCOCCOCCOCCOCCC(=O)N3CCc4cc(Cn5nc(-c6ccc7oc(N)nc7c6)c6c(N)ncnc65)ccc4C3)[C@H](OC)C2)C[C@@H](O)[C@H](C)/C=C(\C)[C@@H](O)[C@@H](OC)C(=O)[C@H](C)C[C@H](C)/C=C/C=C/C=C/1C	phase 1 dose escalation	advanced solid tumour patients	intravenous, 8 mg weekly, any grade	–	any TRAE incidence	87.5%
COC[C@@H](CC(C)C)NC(=O)c1ccc(C)c(C)c1	–	Hsd:ICR (CD-1) mouse, female, bone marrow	oral, 2000 mg/kg, 24 h	–	PCE to total erythrocyte ratio	0.588
C[C@]1(CO)Cc2ncn(-c3ccc(C#N)c(Cl)c3)c2C(=O)O1	–	human, Chinese, plasma	20 mg single dose, median	–	tmax	1 h
O=C1Nc2cc3[nH]nc(-c4ccncc4)c3cc2CN1Cc1ccccc1	CTCAE v4.03	human, relapsed or refractory advanced solid tumours	intravenous, 0.45 mg/kg, pooled schedules	–	patients with QTc prolongation	0%
CCN1[C@@H](C(=O)NC23CCC(C(=O)O)(CC2)CC3)[C@H](c2cccc(Cl)c2F)[C@]2(C(=O)Nc3cc(Cl)ccc32)C12CCCCC2	–	patients with advanced solid tumours	oral, 100 mg	–	grade ≥3 Neutropenia incidence	9.1%
CCN1CCN(Cc2ccc(Nc3ncc(F)c(-c4cc(F)c5nc6n(c5c4)[C@H](C)CCC6)n3)nc2)CC1	–	advanced solid tumour patients	dose not given, Phase Ia monotherapy	–	Hypokalemia incidence, grade ≥3	4.2%
C[C@H]1CN(C(=O)CC#N)[C@]12CCN(c1ncnc3[nH]ccc13)C2	–	minipig, male	dermal, 12 mg/kg repeated, 1 months	–	AUC at NOAEL	21 ng·h/mL
C[C@@H]1OC(=O)NN=C1c1ccc(-c2ccc(F)cc2)c(C(F)(F)F)c1	phase I trial, item: muscle spasms worst grade 1	human patients	10 mg loading then 0.5 mg daily	–	patients with adverse event	100%
CC(C)[C@@H](CS(=O)(=O)C(C)C)N1C(=O)[C@@](C)(CC(=O)O)C[C@H](c2cccc(Cl)c2)[C@H]1c1ccc(Cl)cc1	MALDI-MSI	B6.129S7-Rag1tm1Mom/J orthotopic PDX mice, tumour	25 mg/kg two doses, 2 h after second dose	–	median concentration	630 nmol/L
O=C(Nc1ccccc1)C1CCN(C(=O)Oc2cccnc2)CC1	–	healthy women	oral, 100 mg, 9 days	–	adverse event Constipation	7.7%
CCCCCCCCCCCCCCCC(=O)N[C@@H](CCC(=O)NCCCC[C@H](NC(=O)[C@H](CC(=O)O)NC(=O)[C@H](CO)NC(=O)[C@@H](NC(=O)[C@H](Cc1ccccc1)NC(=O)[C@@H](NC(=O)CNC(=O)[C@H](CCC(N)=O)NC(=O)[C@H](CO)NC(=O)[C@@H](N)Cc1c[nH]cn1)[C@@H](C)O)[C@@H](C)O)C(=O)N[C@@H](CO)C(=O)N[C@@H](CCC(=O)O)C(=O)N[C@@H](Cc1ccc(O)cc1)C(=O)N[C@@H](CC(C)C)C(=O)N[C@@H](CC(=O)O)C(=O)N[C@@H](CO)C(=O)N[C@@H](CCC(=O)O)C(=O)N[C@@H](CCCNC(=N)N)C(=O)N[C@@H](C)C(=O)N[C@@H](CCCNC(=N)N)C(=O)N[C@@H](CC(=O)O)C(=O)N[C@@H](Cc1ccccc1)C(=O)N[C@H](C(=O)N[C@@H](C)C(=O)N[C@@H](Cc1c[nH]c2ccccc12)C(=O)N[C@@H](CC(C)C)C(=O)N[C@@H](CCC(=O)O)C(=O)N[C@@H](C)C(=O)NCC(=O)NCC(=O)O)C(C)C)C(=O)O	item: Dyspepsia	humans CrCl below 20 mL/min	subcutaneous, 100 µg single dose	–	treatment-related adverse events	0%

For quick reference, copied from above:
Structure (SMILES)	assay	system	conditions	how to read	measurement	value
COc1nnc2ccc(N3CCC(c4ccc(OCCN5CCN(C)C(=O)[C@H]5C)cc4)CC3)nn12	–	relapsed/refractory solid tumour or lymphoma patients	oral, dose not given	–	serious TEAE	20.6%
Cc1ncnc2c1ccn2[C@@H]1C[C@H](Oc2cc(C(F)F)c(F)c3c2CNCC3)[C@@H](O)[C@H]1O	–	patients	dose not given, grade ≥3	reference: patients	Dyspnea incidence	0%
